Published values pooled from the literature.
Each numbered part is a random draw from the data of one study; scales do not carry over between parts. pIC50: −log10 of the molar value.
Chain of UniProt P06493 (whole entry, looked up): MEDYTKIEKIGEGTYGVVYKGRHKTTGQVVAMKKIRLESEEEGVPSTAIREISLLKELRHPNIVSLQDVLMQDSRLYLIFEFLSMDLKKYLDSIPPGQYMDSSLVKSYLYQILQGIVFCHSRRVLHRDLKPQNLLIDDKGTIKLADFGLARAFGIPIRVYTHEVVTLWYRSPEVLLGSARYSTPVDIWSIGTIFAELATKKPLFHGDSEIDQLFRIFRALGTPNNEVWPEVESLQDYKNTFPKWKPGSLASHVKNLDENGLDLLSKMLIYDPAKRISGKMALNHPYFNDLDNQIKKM
Chain of UniProt Q9H4B4 (whole entry, looked up): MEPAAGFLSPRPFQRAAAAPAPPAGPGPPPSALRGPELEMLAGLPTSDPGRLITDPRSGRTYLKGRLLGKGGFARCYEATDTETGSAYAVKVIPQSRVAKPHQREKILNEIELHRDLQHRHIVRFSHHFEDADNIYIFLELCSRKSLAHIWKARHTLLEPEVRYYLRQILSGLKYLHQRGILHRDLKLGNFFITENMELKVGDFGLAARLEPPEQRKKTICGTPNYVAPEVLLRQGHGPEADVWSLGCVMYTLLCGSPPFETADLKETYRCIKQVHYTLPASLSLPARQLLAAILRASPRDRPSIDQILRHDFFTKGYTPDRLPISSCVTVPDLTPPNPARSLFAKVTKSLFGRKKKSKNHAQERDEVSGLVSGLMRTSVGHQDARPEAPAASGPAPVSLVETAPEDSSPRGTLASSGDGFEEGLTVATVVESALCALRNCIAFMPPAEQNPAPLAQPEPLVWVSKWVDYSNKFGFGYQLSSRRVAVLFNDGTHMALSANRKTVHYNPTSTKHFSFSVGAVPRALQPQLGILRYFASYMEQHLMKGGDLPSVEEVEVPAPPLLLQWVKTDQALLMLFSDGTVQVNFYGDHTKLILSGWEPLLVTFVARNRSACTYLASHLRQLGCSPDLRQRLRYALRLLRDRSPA
Chain of UniProt Q16832 (whole entry, looked up): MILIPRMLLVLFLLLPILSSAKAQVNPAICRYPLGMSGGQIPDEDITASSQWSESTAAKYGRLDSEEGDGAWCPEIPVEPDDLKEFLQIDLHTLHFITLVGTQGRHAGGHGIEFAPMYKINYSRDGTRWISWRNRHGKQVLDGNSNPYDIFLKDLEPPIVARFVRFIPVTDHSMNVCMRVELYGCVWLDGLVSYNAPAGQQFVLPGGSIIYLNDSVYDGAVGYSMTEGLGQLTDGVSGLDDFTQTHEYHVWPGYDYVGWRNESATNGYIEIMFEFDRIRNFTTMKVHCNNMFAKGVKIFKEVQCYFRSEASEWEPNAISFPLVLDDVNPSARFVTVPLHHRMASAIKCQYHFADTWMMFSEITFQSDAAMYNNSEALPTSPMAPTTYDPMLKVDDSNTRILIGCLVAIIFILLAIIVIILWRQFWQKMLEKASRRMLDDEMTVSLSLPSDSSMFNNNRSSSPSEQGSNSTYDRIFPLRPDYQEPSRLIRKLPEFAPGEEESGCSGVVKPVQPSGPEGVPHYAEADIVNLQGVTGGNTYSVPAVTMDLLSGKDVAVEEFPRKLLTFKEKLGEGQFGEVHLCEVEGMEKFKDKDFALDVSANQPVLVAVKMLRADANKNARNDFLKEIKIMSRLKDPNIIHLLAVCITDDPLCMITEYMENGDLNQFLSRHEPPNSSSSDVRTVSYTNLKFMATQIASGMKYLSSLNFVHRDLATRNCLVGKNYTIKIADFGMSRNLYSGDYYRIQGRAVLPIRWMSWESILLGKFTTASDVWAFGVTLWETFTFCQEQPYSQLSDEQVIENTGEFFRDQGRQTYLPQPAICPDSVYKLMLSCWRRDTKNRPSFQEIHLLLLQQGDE
Chain of UniProt Q02750 (whole entry, looked up): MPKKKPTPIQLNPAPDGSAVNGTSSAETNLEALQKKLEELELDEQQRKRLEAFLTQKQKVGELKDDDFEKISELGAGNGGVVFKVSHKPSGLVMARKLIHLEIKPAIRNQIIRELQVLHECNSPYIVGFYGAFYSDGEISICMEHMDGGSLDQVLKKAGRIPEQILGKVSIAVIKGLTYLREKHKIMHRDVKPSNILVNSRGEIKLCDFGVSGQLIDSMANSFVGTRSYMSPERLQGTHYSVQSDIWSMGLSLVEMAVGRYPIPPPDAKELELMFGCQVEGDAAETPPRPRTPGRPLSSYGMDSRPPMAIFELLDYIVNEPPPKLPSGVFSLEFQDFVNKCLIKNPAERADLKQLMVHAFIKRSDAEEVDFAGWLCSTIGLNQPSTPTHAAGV
Chain of UniProt P42681 (whole entry, looked up): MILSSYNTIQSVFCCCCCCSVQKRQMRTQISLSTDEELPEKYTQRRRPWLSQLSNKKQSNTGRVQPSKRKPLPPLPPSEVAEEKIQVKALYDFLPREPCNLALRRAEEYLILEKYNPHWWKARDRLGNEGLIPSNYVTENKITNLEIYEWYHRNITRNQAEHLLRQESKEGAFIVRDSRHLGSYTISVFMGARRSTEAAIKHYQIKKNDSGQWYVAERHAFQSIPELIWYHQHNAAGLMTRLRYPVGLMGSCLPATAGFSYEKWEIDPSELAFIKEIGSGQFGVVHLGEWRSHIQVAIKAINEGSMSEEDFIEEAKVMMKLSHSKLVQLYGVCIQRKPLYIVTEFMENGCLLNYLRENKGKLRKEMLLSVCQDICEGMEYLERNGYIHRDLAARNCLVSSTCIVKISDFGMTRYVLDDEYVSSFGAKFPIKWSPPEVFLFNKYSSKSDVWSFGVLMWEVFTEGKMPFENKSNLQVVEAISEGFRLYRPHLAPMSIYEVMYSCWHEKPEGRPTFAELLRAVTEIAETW
Chain of UniProt Q13464 (whole entry, looked up): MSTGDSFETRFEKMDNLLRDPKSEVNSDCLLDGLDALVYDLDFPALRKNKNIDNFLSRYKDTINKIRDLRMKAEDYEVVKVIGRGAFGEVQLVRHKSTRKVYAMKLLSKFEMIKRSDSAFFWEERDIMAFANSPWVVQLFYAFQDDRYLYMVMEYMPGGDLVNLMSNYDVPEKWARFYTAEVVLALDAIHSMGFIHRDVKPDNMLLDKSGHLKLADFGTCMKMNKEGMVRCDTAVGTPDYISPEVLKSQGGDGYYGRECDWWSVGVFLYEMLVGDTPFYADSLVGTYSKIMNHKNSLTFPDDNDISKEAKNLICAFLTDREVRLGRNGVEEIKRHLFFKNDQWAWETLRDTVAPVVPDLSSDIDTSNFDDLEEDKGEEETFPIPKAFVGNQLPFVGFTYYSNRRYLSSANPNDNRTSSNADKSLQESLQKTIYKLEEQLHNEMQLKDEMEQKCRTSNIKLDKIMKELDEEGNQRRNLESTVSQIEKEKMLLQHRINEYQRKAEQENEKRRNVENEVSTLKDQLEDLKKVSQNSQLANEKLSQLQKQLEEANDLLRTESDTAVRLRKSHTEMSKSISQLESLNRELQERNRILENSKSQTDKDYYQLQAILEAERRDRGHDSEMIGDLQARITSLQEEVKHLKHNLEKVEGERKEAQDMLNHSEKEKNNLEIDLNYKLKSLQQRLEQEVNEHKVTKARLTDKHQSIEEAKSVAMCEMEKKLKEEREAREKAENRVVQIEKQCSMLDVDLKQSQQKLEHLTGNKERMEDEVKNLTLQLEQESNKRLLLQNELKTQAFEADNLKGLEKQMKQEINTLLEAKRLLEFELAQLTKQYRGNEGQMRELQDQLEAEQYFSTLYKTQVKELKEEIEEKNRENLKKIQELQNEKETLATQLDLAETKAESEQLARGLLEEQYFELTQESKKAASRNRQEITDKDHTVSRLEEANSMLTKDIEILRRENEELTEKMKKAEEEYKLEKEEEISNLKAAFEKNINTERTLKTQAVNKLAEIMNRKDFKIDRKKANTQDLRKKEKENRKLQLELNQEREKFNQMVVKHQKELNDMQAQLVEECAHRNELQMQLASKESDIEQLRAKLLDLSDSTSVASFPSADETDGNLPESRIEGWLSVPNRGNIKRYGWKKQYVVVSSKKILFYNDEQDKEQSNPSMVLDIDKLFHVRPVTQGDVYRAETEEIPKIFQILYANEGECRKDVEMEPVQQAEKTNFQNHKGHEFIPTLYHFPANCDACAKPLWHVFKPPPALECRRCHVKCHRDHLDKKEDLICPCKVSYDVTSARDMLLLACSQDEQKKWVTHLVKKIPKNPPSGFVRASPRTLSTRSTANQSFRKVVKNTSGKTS

Sample 1
Organism: Sarcocystis neurona
Effect on: parasite activity
Concentration: 10 µM
Time: 96 h
Endpoint: activity class
Compound = CCc1nc(N)nc(N)c1-c1ccc(Cl)cc1; value = active
Compound = CO[C@H]1/C=C/O[C@@]2(C)Oc3c(C)c(O)c4c(O)c(c(/C=N/N5CCN(C6CCCC6)CC5)c(O)c4c3C2=O)NC(=O)/C(C)=C\C=C\[C@H](C)[C@H](O)[C@@H](C)[C@@H](O)[C@@H](C)[C@H](OC(C)=O)[C@@H]1C; value = inactive
Compound = CC(C)(C(=O)c1cccnc1)c1cccnc1; value = inactive
Compound = Cc1ccc(S(=O)(=O)NC(=O)NN2CCCCCC2)cc1; value = inactive
Compound = Cc1cc2c(s1)Nc1ccccc1N=C2N1CCN(C)CC1; value = inactive
Compound = COc1cc(C(=O)NS(=O)(=O)c2ccccc2C)ccc1Cc1cn(C)c2ccc(NC(=O)OC3CCCC3)cc12; value = inactive
Compound = CC1=NS(=O)(=O)c2cc(Cl)ccc2N1; value = inactive

Sample 2
Target: Beta-1 adrenergic receptor (ADRB1, Homo sapiens, UniProt P08588)
Chain of UniProt P08588 (whole entry, looked up): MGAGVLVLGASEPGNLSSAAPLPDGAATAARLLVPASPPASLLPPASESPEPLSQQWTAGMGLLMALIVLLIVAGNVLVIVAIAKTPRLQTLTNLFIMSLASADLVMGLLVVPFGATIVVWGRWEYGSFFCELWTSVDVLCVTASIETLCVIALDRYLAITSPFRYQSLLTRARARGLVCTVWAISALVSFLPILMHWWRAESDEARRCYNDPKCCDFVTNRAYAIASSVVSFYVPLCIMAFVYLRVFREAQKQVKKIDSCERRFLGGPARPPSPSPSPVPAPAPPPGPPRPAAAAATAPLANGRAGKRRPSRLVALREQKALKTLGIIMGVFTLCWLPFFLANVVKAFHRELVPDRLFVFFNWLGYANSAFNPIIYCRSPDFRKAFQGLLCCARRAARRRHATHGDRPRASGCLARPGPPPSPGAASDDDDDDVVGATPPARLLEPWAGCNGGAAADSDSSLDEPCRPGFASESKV
Mode: antagonist
Endpoint: pIC50
SMILES = CC(C)(C)NCC(O)COc1ccccc1OCC1CCCO1 (stereo not shown); value = ≤ 4.00
SMILES = CC(CCc1ccc(O)cc1)NCCc1ccc(O)c(O)c1 (stereo not shown); value = ≤ 4.00
SMILES = COc1ccc2c(Cn3nnc(-c4ccc(Br)cc4)n3)cc(=O)oc2c1; value = ≤ 4.00
SMILES = CN1C(=O)COC[C@@H]1[C@H](O)c1ccc(NC(=O)Cc2ccccc2)cc1; value = ≤ 4.00
SMILES = COc1ccccc1N1CCN(C(=O)[C@@H]2Cc3c[nH]c4cccc(c34)[C@H](CC(C)C)N2)CC1; value = ≤ 4.00
SMILES = CC(C)(C)NC[C@H](O)COc1ccccc1C1CCCC1; value = ≤ 4.00
SMILES = CCCC(=O)c1cc(F)ccc1OCC(O)CNC(C)(C)C (stereo not shown); value = ≤ 4.00
SMILES = Oc1cc2c(cc1O)C(c1ccccc1)CNCC2 (stereo not shown); value = ≤ 4.00
SMILES = Cc1cc(C(C)Nc2ccccc2)c2nc(N3CCOCC3)cc(=O)n2c1 (stereo not shown); value = ≤ 4.00
SMILES = Cc1ccccc1Oc1cccc2c(=O)cc(N3CCOCC3)[nH]c12; value = ≤ 4.00

Sample 3
Structure (SMILES): O=C1NC(=O)c2c1c1c3ccccc3[nH]c1c1[nH]c3cc(Br)ccc3c21
Effect on: enzyme activity
Mode: inhibitor
Concentration: 0.5 µM
Relative to: control
Endpoint: remaining activity
target = Mitogen-activated protein kinase 1 (MAPK1, Homo sapiens, UniProt P28482); value = 92.4%
target = Serine/threonine-protein kinase PLK3 (PLK3, Homo sapiens, UniProt Q9H4B4); value = 93.3%
target = Cyclin-dependent kinase 9, with cyclin K (CDK9, Homo sapiens, UniProt P50750); value = 82.7%
target = Serine/threonine-protein kinase Nek3 (NEK3, Homo sapiens, UniProt P51956); value = 88.3%
target = Serine/threonine-protein kinase MARK2 (MARK2, Homo sapiens, UniProt Q7KZI7); value = 40.4%
target = Tyrosine-protein kinase TXK (TXK, Homo sapiens, UniProt P42681); value = 90.3%
target = Rho-associated protein kinase 1 (ROCK1, Homo sapiens, UniProt Q13464); value = 93.9%
target = Cyclin-dependent kinase 1, with cyclin A (CDK1, Homo sapiens, UniProt P06493); value = 91.9%
target = Discoidin domain-containing receptor 2 (DDR2, Homo sapiens, UniProt Q16832); value = 91.8%
target = G protein-coupled receptor kinase 4 (GRK4, Homo sapiens, UniProt P32298); value = 99.8%
target = Serine/threonine-protein kinase PAK 3 (PAK3, Homo sapiens, UniProt O75914); value = 97.7%
target = Dual specificity mitogen-activated protein kinase kinase 1 (MAP2K1, Homo sapiens, UniProt Q02750); value = 90.3%
target = Calcium/calmodulin-dependent protein kinase type 1B (PNCK, Homo sapiens, UniProt Q6P2M8); value = 99.4%

Sample 4
Target: D(2) dopamine receptor (DRD2, Homo sapiens, UniProt P14416)
Chain of UniProt P14416 (whole entry, looked up): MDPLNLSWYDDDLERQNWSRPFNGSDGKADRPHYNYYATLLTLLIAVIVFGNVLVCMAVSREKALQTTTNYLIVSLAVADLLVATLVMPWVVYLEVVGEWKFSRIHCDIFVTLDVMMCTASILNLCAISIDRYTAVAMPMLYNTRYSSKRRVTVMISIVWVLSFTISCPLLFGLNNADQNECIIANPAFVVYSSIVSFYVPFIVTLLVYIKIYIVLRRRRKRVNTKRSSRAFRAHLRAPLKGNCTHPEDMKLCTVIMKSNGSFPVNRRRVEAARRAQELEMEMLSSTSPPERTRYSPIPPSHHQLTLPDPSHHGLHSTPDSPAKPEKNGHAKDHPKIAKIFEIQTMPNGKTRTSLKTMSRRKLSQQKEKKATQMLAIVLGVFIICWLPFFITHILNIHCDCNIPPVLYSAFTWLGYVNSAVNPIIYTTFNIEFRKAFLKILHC
Effect on: ligand displacement
Concentration: 10 µM
Endpoint: inhibition
SMILES = NC(=O)c1ccc2nc(-c3ccc(C4(N)CCC4)cc3)c(-c3ccccc3)n2n1; value = -1.55%
SMILES = O=C(Nc1ccc(Oc2ccc(F)cc2)cc1)N1CCc2ncccc2[C@H]1c1ccc(F)cc1; value = -3.97%
SMILES = Nc1nc(NCc2ccccc2)nc(-c2ccccc2CO)n1; value = 10%
SMILES = O=C(NCCCC1CCCCC1)c1ccc(CNC(=O)c2cnn(-c3ccccc3)c2C(F)(F)F)cc1; value = 15.8%
SMILES = Nc1cnc(N2CCc3cc(S(=O)(=O)Nc4c(F)cc(Cl)cc4F)cc(N4CCCC4=O)c32)nc1; value = -0.42%
SMILES = CC(=O)N1CCC(c2ccc(C(=O)NC3=NCCN3)cc2C(F)(F)F)CC1; value = -4.57%
SMILES = CCOc1ccc(S(=O)(=O)Nc2ccc(Cl)cc2C#Cc2cnc(C(=O)O)cc2OC)c2ncccc12; value = 9.9%
